Experimental data from different studies.
Every numbered part comes from another study and shows a few of its results, in no order.

Series 1
Target: Sal-like protein 4, full length isoform A (SALL4, Homo sapiens, UniProt Q9UJQ4, residues 1-1053)
Chain of UniProt Q9UJQ4 (whole entry, looked up): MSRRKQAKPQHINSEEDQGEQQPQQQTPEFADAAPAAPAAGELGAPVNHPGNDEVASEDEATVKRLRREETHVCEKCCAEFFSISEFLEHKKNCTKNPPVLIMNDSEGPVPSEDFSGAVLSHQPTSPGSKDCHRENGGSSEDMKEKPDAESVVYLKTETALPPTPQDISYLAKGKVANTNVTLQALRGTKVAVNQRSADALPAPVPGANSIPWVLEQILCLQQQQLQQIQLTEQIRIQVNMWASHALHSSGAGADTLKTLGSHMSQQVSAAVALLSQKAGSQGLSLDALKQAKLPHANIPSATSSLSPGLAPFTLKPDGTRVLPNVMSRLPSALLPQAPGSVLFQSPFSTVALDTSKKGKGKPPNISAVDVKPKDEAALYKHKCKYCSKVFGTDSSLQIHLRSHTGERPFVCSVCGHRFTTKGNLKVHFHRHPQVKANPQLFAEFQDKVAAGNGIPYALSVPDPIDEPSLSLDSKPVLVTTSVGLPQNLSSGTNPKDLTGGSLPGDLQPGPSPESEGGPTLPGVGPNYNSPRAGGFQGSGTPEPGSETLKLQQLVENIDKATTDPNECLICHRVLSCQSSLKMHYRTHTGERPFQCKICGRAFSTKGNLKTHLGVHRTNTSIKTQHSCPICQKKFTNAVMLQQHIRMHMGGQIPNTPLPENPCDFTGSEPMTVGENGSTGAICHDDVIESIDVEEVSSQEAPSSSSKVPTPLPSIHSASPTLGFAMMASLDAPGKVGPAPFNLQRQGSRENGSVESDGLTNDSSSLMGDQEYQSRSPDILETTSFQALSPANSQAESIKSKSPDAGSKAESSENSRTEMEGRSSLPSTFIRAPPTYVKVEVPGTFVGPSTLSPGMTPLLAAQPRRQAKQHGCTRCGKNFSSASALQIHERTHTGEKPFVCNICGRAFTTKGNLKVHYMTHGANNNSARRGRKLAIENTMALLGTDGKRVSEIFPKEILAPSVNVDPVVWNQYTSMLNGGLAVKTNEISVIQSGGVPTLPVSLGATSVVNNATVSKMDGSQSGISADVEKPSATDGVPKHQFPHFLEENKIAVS
Technique: universal PBM
Molecule type: double-stranded DNA, one strand shown
Sample: in vitro
Tested at: 600 nM
Setting: 8-mer, flanks averaged, mean of replicates
Direction: higher = stronger binding
| Sequence | E-score |
| --- | --- |
| ACATGAAG | 0.172 |
| ATTAGGCG | -0.0531 |
| TCTTAACA | 0.174 |

Series 2
Target: Interferon regulatory factor 5, full length, phosphomimetic (IRF5, Homo sapiens, UniProt Q13568-2, residues 1-514, S451D/S453D/S456D/S462D)
Technique: protein-binding microarray
Molecule type: double-stranded DNA, one strand shown
Sample: in vitro
Tested at: 940 nM top
Setting: 60-bp whole probe
With: salmon DNA 0.4 mg/ml
Reference: random background probes
Direction: higher = stronger binding
| Sequence | fitted relative affinity |
| --- | --- |
| GCCTAGCACTTCGATTTCGGGTATCGATTAGTGCTAGTCTTGATTCGCTTGACGCTGCTG | 3.96 z-score |
| GCCTAGCACTCAGGCCTCTTCATTCATACTGTGCTAGTCTTGATTCGCTTGACGCTGCTG | 0.2 z-score |
| GCCTAGCACTTAGGTTTCGGTATCGGTAAGTGCTAGGTCTTGATTCGCTTGACGCTGCTG | 15.4 z-score |
| GCCTAGCACGACGAACTGGGGTTTTGAGACGTGCTAGTCTTGATTCGCTTGACGCTGCTG | -0.0389 z-score |

Series 3
Target: Hepatocyte nuclear factor 3-beta, forkhead domain (FOXA2, Homo sapiens, UniProt Q9Y261, residues 142-269)
Technique: protein-binding microarray
Molecule type: double-stranded DNA, one strand shown
Sample: in vitro
Tested at: not given
Setting: k-mer, scored over probes, only values ≥0.25
Direction: higher = stronger binding
Target sequence (chain): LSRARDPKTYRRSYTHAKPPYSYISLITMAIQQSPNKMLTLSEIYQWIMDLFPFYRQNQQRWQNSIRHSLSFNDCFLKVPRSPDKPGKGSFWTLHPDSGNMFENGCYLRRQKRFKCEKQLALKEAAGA
| Sequence | E-score |
| --- | --- |
| CGATTGTA | 0.267 |
| ATATCGAA | 0.264 |
| AAATAAAT | 0.287 |

Mixed results
| Molecule | target | test | system | conditions | how to read | endpoint | value |
| --- | --- | --- | --- | --- | --- | --- | --- |
| PhoQ, residues 284 288 289 292 302 303 GNNTDL | PhoP, residues 12 14 15 18 19 IQSYL (Escherichia coli, UniProt P23836) | Sort-seq, item: YFP reporter | E. coli | PhoQ-PhoP variant library, with: 10 µM Mg2+ | reference: high Mg2+ state, higher = stronger signaling | fold induction | 12 |

Excerpt of the above (series 2):
| Sequence | fitted relative affinity |
| --- | --- |
| GCCTAGCACTCAGGCCTCTTCATTCATACTGTGCTAGTCTTGATTCGCTTGACGCTGCTG | 0.2 z-score |
